Measurements collected from several papers.
Lines come from different studies, so protocols differ. “And” joins repeats or separate records; there may be more than shown. Numbers after ± are the reported error.
TOP2A: DNA topoisomerase 2-alpha (TOP2A, Homo sapiens, UniProt P11388)
SLC6A6 Y138A: Sodium- and chloride-dependent taurine transporter (SLC6A6, Homo sapiens, UniProt P31641, Y138A)
WDR55: WD repeat-containing protein 55 (WDR55, Homo sapiens, UniProt Q9H6Y2)
HTR2A: 5-hydroxytryptamine receptor 2A (HTR2A, Homo sapiens, UniProt P28223)
PIKFYVE: 1-phosphatidylinositol 3-phosphate 5-kinase (PIKFYVE, Homo sapiens, UniProt Q9Y2I7)
HTR2C: 5-hydroxytryptamine receptor 2C (HTR2C, Homo sapiens, UniProt P28335)

CC(C)NCC(O)c1ccc(O)c(O)c1 (stereo not shown)
sarcomere length (ventricular cardiomyocytes, C57BL/6 mouse; dose not given, 0.28 s): 1.7 µm

CCCC[C@H]1C(=O)N(C)[C@@H](CCCC)C(=O)N[C@@H](CCCCNC(=O)CN2CCN(CC(=O)O)CCN(CC(=O)O)CC2)C(=O)N[C@H](C(=O)NCC(N)=O)CSCC(=O)N[C@@H](Cc2ccc(O)cc2)C(=O)N(C)[C@@H](C)C(=O)N[C@@H](CC(N)=O)C(=O)N2CCC[C@H]2C(=O)N[C@@H](Cc2c[nH]cn2)C(=O)N[C@@H](CCC(=O)O)C(=O)N2C[C@H](O)C[C@H]2C(=O)N[C@@H](Cc2c[nH]c3ccccc23)C(=O)N[C@@H](CO)C(=O)N[C@@H](Cc2cn(CC(=O)O)c3ccccc23)C(=O)N1C [gallium-68 labelled]
cell uptake (Programmed cell death 1 ligand 1 (CD274, Homo sapiens, UniProt Q9NZQ7); C6661; with: anti-PD-L1 antibody block): 0.44%

Cc1nc(CSc2nc(SCc3ccc(C(C)C)cc3)nc(=O)[nH]2)cs1
relaxed DNA (TOP2A; DNA relaxation; 31.25 µM, replicate 1): 99.9%

CCCCC[C@H](O)/C=C/[C@H]1[C@H](O)CC(=O)[C@@H]1C/C=C\CCCC(=O)O
Emax (Prostaglandin E2 receptor EP1 subtype (PTGER1, Homo sapiens, UniProt P34995, F334A/G92A); IP1 accumulation, agonist; AD293; 1 h; relative to: wild type receptor): 52.5 ± 4.38%

O=C(O)C1CCCNC1 (stereo not shown)
fraction bound (SLC6A6 Y138A; binding, microscale thermophoresis; 30.5 nM, fitted curve; higher = more binding): 0.00151

Cc1cccc(N2CC(C(=O)O)CC2=O)c1 (stereo not shown)
log fold enrichment (WDR55; binding, affinity selection mass spectrometry; relative to: other proteins in batch): -0.000956

CCN1CCC[C@H]1CNC(=O)c1c(O)c(Cl)cc(Cl)c1OC
log2 fold change (ADGRG2 (Homo sapiens, UniProt Q8IZP9); β-arrestin recruitment, TANGO luminescence, refers to: GPR64; concentration not given; relative to: basal luminescence): 0.647

O=C(O)CC[C@H](NC(=O)N[C@@H](CCCCNC(=O)[C@H](Cc1ccc2ccccc2c1)NC(=O)CCCCCNC(=O)CN1CCN(CC(=O)O)CCN(CC(=O)O)CCN(CC(=O)O)CC1)C(=O)O)C(=O)O [gallium-68 labelled]
tissue uptake (gamma counting; mouse, PC-3 xenograft, liver; intravenous, 3.7 MBq, 2 h): 8.57 ± 0.52 %ID/g

Nc1ccc2cc3ccc(N)cc3nc2c1
binding Gibbs energy (Chymotrypsinogen A, activated (alpha-chymotrypsin) (Bos taurus, UniProt P00766); isothermal titration calorimetry; 25 °C, with: 0.5 M TMAO): -5.593 ± 0.0239 kcal/mol

COc1cc(-c2nc(NC(=O)c3cc4cc(C)cc(C)c4n3CC(=O)O)sc2CCC2CCCCC2)c(OC)cc1Cl
IC50 (Cholecystokinin receptor type A (CCKAR, Homo sapiens, UniProt P32238); antagonist, calcium flux): 70 nM

O=C(Nc1nc2cccc(-c3ccc(CN4CCS(=O)(=O)CC4)cc3)n2n1)C1CC1
treatment-emergent adverse events (refers to: musculoskeletal disorders; human rheumatoid arthritis patients; oral, 150 mg once daily, 4 weeks, regardless of relatedness): 0%

CC(C)C(=O)Nc1n[nH]c2cc(-c3cccc(NS(=O)(=O)C4CC4)c3)ccc12
ADP produced (Phosphatidylinositol 4-phosphate 5-kinase type-1 gamma (PIP5K1C, Homo sapiens, UniProt O60331); ADP-Glo; 370 nM, with: 10 µM ATP): 2.6 µM

O=C1c2ccccc2CCN1CCCCN1CCN(c2cccc(Cl)c2Cl)CC1
inhibition (HTR2A; radioligand binding; concentration not given, with: [3H]ketanserin): 98.7%

N[C@@H](CCC(=O)O)C(=O)O
Emax (uncharacterized protein (Ixodes scapularis, UniProt A0A0N9E2I2); ion current, agonist; Xenopus oocytes; no modulator present; relative to: 1 mM compound response): 140 ± 7%

Nc1ncnc2c1ncn2[C@@H]1O[C@H](COP(=O)(O)OP(=O)(O)O)[C@@H](O)[C@H]1O
Km (Creatine kinase U-type, mitochondrial (CKMT1A, Homo sapiens, UniProt P12532, E265D); substrate, Kinase-Glo luminescence; pH 7.0, reverse reaction, E227D mutant, with: second substrate in excess): 11.4 ± 0.5 µM

O=C(O)C(=O)Cc1cccc(O)c1
Km (Nostoc punctiforme; substrate, Ellman CoA release; with: acetyl-CoA): 85 ± 6.2 µM

c1ccc(C(NCc2cccnc2)(c2ccccc2)c2ccccc2)cc1
apparent koff (Potassium voltage-gated channel subfamily KQT member 1 (KCNQ1, Homo sapiens, UniProt P51787); fractional inhibition kinetics; y-intercept of rate vs concentration): 14 s⁻¹

Nc1nc2c(ncn2[C@@H]2O[C@H](COP(=O)(O)O)[C@@H](O)[C@H]2O)c(=O)[nH]1
reaction rate (GUK1 (Homo sapiens, UniProt Q16774, R41A); enzyme activity, NADH-coupled; 62.5 µM): 1.19 s⁻¹ and 0.232 s⁻¹ and 0.552 s⁻¹

O=C(C[C@@H](C(F)F)n1ccc(F)n1)N1CCC(O)(Cn2cnc3c(cnn3-c3ccc(F)cc3)c2=O)CC1
binding enthalpy (Ubiquitin carboxyl-terminal hydrolase 7 (USP7, Homo sapiens, UniProt Q93009); ITC; concentration not given, wild-type enzyme): -20.7 ± 0.127 kcal/mol

c1cncc(OC[C@H]2CN(CCN3CCc4ccccc43)CCO2)c1
inhibition (HTR2A; radioligand binding; concentration not given, with: [3H]ketanserin): 66%

O=S(=O)(O)O
reaction velocity (GUK1 (Homo sapiens, UniProt Q16774); enzyme activity, NADH-coupled; 1 mM, with: ATP 125 µM): 0.0851 µM/s and 0.076 µM/s and 0.0632 µM/s

CC1(C)CC2(C)OC(=O)NC2(C)c2ccccc21 (stereo not shown)
fold enrichment (Histone acetyltransferase type B catalytic subunit (Homo sapiens, UniProt O14929); binding, affinity selection mass spectrometry; relative to: other proteins in batch): 0.565

Cc1cc(=O)oc2cc(O)ccc12
Vmax (UDP-glucuronosyltransferase 1A9 (UGT1A9, Homo sapiens, UniProt O60656); glucuronidation, substrate; recombinant enzyme): 3650 pmol/min/mg

CC1CCCN(C(=O)c2cc3ncccn3n2)C1 (stereo not shown)
fold enrichment (WDR55; binding, affinity selection mass spectrometry; relative to: other proteins in batch): 0.69

O=c1cc(-c2ccc([N+](=O)[O-])cc2)[nH]c2c(-c3ccc(Cl)cc3)c(Cc3ccccc3)nn12
melting temperature shift (MICAL-like protein 1 (MICALL1, Homo sapiens, UniProt Q8N3F8); thermal stability, binder, thermal proteome profiling; RD, cell lysate; 50 µM, 0.5% DMSO; relative to: DMSO vehicle): 3.8 °C

Nc1ncnc2c1ncn2[C@@H]1O[C@H](CO[P@](=O)(O)O[P@](=O)(O)O[P@@](=O)(O)S)[C@@H](O)[C@H]1O
-TΔS (GUK1 (Homo sapiens, UniProt Q16774, S13A); binding, ITC): -2.81 kcal/mol

Nc1ccc(C(=O)O)cc1
current density (BEST1 (Homo sapiens, UniProt O76090); whole-cell patch clamp; HEK293 transiently expressing channel; concentration not given, membrane potential 100 mV): 205 pA/pF and 108 pA/pF and 87.8 pA/pF and 128 pA/pF and 173 pA/pF and 199 pA/pF and 148 pA/pF

CC(C)C[C@H](NC(=O)C[C@H](O)[C@H](CC(C)C)NC(=O)[C@H](Cc1c[nH]cn1)NC(=O)CNC(=O)[C@@H](NC(=O)[C@H](C)NC(=O)[C@H](Cc1c[nH]c2ccccc12)NC(=O)[C@H](CCC(N)=O)NC(=O)[C@@H](Cc1ccccc1)NC(=O)COCCOCCNC(=O)CCC(C(=O)O)N1CCN(CC(=O)O)CCN(CC(=O)O)CCN(CC(=O)O)CC1)C(C)C)C(N)=O (stereo partly shown) [lutetium-177 labelled]
tissue uptake (female BALB/c nu/nu mice, heart; intravenous, 100 pmol, 24 h, with: PA 300 µg): 0.07 ± 0.08 %ID/g

Cn1cc(Nc2nccc(-c3ccc4c(c3)CN(C3COC3)CC[C@H]4NC(=O)c3cn(C(C)(C)C)nn3)n2)cn1
percent change from baseline (refers to: CD3+ T cell count; human, clinical trial, whole blood; 50 mg twice daily, follow-up): -4.39%

C[C@@H](c1ccc(-n2cnc3c(N)ncnc32)cc1)N1CCc2nn(C)c(Cc3ccccc3)c2C1=O
remaining binding (PIKFYVE; KINOMEscan; 0.1 µM; relative to: DMSO control): 67%

CC(C)CCC[C@@H](C)[C@H]1CC[C@H]2[C@@H]3CNC4=CC(=O)CC[C@]4(C)[C@H]3CC[C@]12C
Ki (uncompetitive) (3 beta-hydroxysteroid dehydrogenase/Delta 5-->4-isomerase (Mycobacterium tuberculosis, UniProt P9WQP7); inhibitor; with: NAD+ varied, DHEA 120 µM): 98 ± 12 nM

OCc1ccc(-c2nn(Cc3ccccc3)c3ccccc23)o1
relative sulfonation activity (Sulfotransferase 1A1 (SULT1A1, Homo sapiens, UniProt P50225); substrate, colorimetric; 100 µM; relative to: benzyl alcohol): < 2 fold

CC[C@@H]1[C@H](F)C(=O)N[C@@H]1COc1nccc2cc(C(N)=O)c(OC)cc12
inhibition (PIKFYVE; ATP probe binding, KiNativ profiling, refers to: ATP loop probe site; THP-1 cell lysate; 0.01 mM): 11%

Cc1ccnc(C)c1OC[C@H]1CN(CCN2CCc3ccccc32)CCO1
inhibition (HTR2C; radioligand binding; concentration not given, with: [3H]mesulergine): 1.5%

Nc1ncnc2c1ncn2[C@@H]1O[C@H](COP(=O)(O)CP(=O)(O)OP(=O)(O)O)[C@@H](O)[C@H]1O
specific binding (P2X purinoceptor 1 (P2RX1, Homo sapiens, UniProt P51575, F188L); saturation binding; HEK293; 79 nM): 6810 CCPM and 5230 CCPM

C[C@H](O)c1cnc(NS(=O)(=O)c2ccc(Cl)c(Cl)c2)nc1
Vmax (17-beta-hydroxysteroid dehydrogenase 13 (Homo sapiens, UniProt Q7Z5P4); substrate, NADH fluorescence): 0.23 nM NADH/s/nM enzyme

CC(NC(=O)CCCc1ccc2ccc3cccc4ccc1c2c34)C(=O)NO (stereo not shown)
binding stoichiometry (Histone deacetylase 8 (HDAC8, Homo sapiens, UniProt Q9BY41); ITC; Tris-HCl buffer; concentration not given, 288 K): 0.8

N#Cc1ccc2c(c1)[C@H]1CCCN(C(=O)c3ccc4[nH]cnc4c3)[C@H]1C2
median ACTH level (human; 360 mg, day 7): 7.5 pmol/L

CNc1ncc2c(/C=C/C(=O)N3CCC(OC)CC3)nn(Cc3cccc(C(F)(F)F)c3)c2n1
remaining activity (Serine/threonine-protein kinase D3 (PRKD3, Homo sapiens, UniProt O94806); kinase activity, inhibitor; 1 µM; relative to: untreated control): 89%

Oc1ccccc1-c1n[nH]cc1-c1ccnc2ccccc12
log2 fold change (Protein kinase C-like 1 (Candida albicans, UniProt P43057); kinase binding, MIB/MS competition; Candida albicans lysate; 1 µM; relative to: DMSO, negative = stronger binding): 0.04

O=c1nc(SCc2cc(F)cc(C(F)(F)F)c2)nc(SCc2ccc3sccc3c2)[nH]1
ATP hydrolysis rate (TOP2A; ATPase activity; 3.9 µM, with: ATP 0.5 mM): 1.9 µM/min and 1.74 µM/min

O=C(Nc1cccc2c(=O)cc(-c3nnn[nH]3)oc12)c1ccc(OCCCCc2ccccc2)cc1
Hill coefficient (LRRC8A/LRRC8C (Homo sapiens, UniProt Q8IWT6+Q8TDW0, L134K/L136K); whole-cell patch clamp; HCT116 LRRC8-/- transfected; at -100 mV): 0.96

O=S(=O)(O)C1CCNCC1
fraction bound (SLC6A6 Y138A; binding, microscale thermophoresis; 40.3 nM, fitted curve; higher = more binding): 0

COc1cc(Nc2ncc3c(n2)-c2ccc(Cl)cc2C(c2c(F)cccc2OC)=NC3)ccc1C(=O)O
remaining activity (MAP3K9; kinase activity; 1 µM): 55%

Cc1ncccc1OC[C@@H]1CN(CCN2CCc3ccccc32)CCO1
inhibition (HTR2C; radioligand binding; concentration not given, with: [3H]mesulergine): 1.7%

Cc1ccc(C[C@H](NC(=O)OC(C)(C)C)C(=O)NC/C=C/S(=O)(=O)c2ccccc2)cc1
kinact/Ki (Cathepsin S (CTSS, Homo sapiens, UniProt P25774); inhibitor; with: Z-Phe-Arg-AMC): 3640 M⁻¹ s⁻¹

Some of these lines once more:
C[C@H](O)c1cnc(NS(=O)(=O)c2ccc(Cl)c(Cl)c2)nc1
Vmax (17-beta-hydroxysteroid dehydrogenase 13 (Homo sapiens, UniProt Q7Z5P4); substrate, NADH fluorescence): 0.23 nM NADH/s/nM enzyme

Nc1ccc2cc3ccc(N)cc3nc2c1
binding Gibbs energy (Chymotrypsinogen A, activated (alpha-chymotrypsin) (Bos taurus, UniProt P00766); isothermal titration calorimetry; 25 °C, with: 0.5 M TMAO): -5.593 ± 0.0239 kcal/mol

CC1CCCN(C(=O)c2cc3ncccn3n2)C1 (stereo not shown)
fold enrichment (WDR55; binding, affinity selection mass spectrometry; relative to: other proteins in batch): 0.69

Nc1ncnc2c1ncn2[C@@H]1O[C@H](COP(=O)(O)OP(=O)(O)O)[C@@H](O)[C@H]1O
Km (Creatine kinase U-type, mitochondrial (CKMT1A, Homo sapiens, UniProt P12532, E265D); substrate, Kinase-Glo luminescence; pH 7.0, reverse reaction, E227D mutant, with: second substrate in excess): 11.4 ± 0.5 µM
